Measurements gathered from unrelated publications.
Parts stem from different laboratories: compare values within a part only. Positions count from the first letter of the parent shown.

Sample 1
Target: Max dimerization protein 1, bHLH-zipper, MAX partner unstated (MXD1, Homo sapiens, UniProt Q05195, residues 56-136)
Method: protein-binding microarray
Molecule type: double-stranded DNA, one strand shown
Sample: in vitro
Concentration: not given
Setting: k-mer, scored over probes, only values ≥0.25
Direction: higher = stronger binding
Target sequence (chain): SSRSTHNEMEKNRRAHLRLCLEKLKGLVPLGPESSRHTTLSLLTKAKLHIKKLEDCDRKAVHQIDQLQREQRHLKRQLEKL
Sequence | E-score
AACATGCA | 0.276
ACGTGACA | 0.408
CACGCGCC | 0.431
CCACGAGG | 0.445
CTGCACAC | 0.35
AAATCATG | 0.311
AATGTGTC | 0.273
CACGCGGC | 0.449
ACGTGCCA | 0.415
CCTCATGA | 0.333
CATGCCAC | 0.36

Sample 2
Target: CCNA2, cyclin fold, Cln2 fusion (human)
Method: yeast growth competition, sequencing
Sample: yeast
Setting: strong parent motif
Baseline: not given
Direction: higher = stronger binding
Starting sequence: MICAL3 docking peptide (human); LQLRRQLSFSEDS; partner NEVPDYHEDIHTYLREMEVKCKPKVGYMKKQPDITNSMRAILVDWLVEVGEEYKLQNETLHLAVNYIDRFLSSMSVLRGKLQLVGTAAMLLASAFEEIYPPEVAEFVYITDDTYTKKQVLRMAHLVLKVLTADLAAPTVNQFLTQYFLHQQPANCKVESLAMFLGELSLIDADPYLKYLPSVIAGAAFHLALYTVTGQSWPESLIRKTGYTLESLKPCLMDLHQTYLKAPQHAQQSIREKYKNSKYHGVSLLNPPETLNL
Variant | normalised enrichment score
R4H | 0.536
R4V | 1.25
F9P | 0.257
F9W | 1.57
L7S | -0.172
Q6R | 5.54
Q2R | 3.82
E11M | 2.7
R4F | 0.829
R5E | -0.0466
Q6P | 0.456
S8G | 1.02
R4E | -0.28
E11C | 3.59
D12W | 2.49
S10W | 1.72
S8F | 3.76
Q2C | 3.7
R5Q | 0.127
R4W | 1.14
Q2P | 4.76
Q2A | 3.57
R5D | 0.0253
R4T | -0.062
F9T | 0.0655

Sample 3
Target: ABI1, truncated, D143A, DHFR fusion (Arabidopsis thaliana)
Method: DHFR PCA, deep sequencing
Sample: yeast
Setting: methotrexate growth selection, single substitutions
Added: (+)-ABA 0.11 µM
Baseline: wild-type fitted maximum
Direction: higher = stronger binding
Starting sequence: PYL1, truncated, DHFR fusion (Arabidopsis thaliana); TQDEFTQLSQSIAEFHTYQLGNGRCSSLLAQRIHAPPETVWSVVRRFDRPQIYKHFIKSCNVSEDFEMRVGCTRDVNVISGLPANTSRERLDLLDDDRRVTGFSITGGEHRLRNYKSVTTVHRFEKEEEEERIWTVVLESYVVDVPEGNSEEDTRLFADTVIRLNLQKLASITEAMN
Variant | relative binding score [%]
V161H | 42.1
E139G | -6.7
T120P | -1.32
Y141W | -5.62
E125G | 38.6
R98V | -7.12
A158R | -1.28
R32V | 51
P50G | -6.82
I12L | 0.92
E128K | 25.2
S171Q | 54.5
F66G | 22.1
L94D | -11.3
A30D | 7.83
T1G | 28.8

Sample 4
Target: RNA binding protein fox-1 homolog 2, RRM domain, GST-SBP tag (RBFOX2, Homo sapiens, UniProt O43251-10, residues 100-194)
Method: RNA Bind-n-Seq
Molecule type: RNA
Sample: in vitro
Concentration: 365 nM
Setting: natural RNA segment, single round, ends assumed
Baseline: no-protein control
Direction: higher = stronger binding
Constant ends, left off below: GGGAGUUCUACAGUCCGACGAUC … UGGAAUUCUCGGGUGCCAA
Residues (chain): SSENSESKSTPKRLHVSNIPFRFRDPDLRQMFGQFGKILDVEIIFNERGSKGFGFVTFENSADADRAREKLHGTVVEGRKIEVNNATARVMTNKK
Sequence | RBNS enrichment (R)
GCAAAAUUCGGAGACUUUGAUCUUUGCUACUGGAGUCCUUUAACAACAUCUAUAACGAUAAAAAAUUCCUAAUUGUUUGUGGUAGUAUUUUAAUUCUAGAUGUGUUAUCU | 0.918
AGAGUGUUGACCUUGUUAAGACGGACGUAGCUGCACGGUAUUCUCAAUACUGAGAUUGCAAAACUGAAGCUUGACAAGUGUGUGGAAGACCCUGGCUCAAGUUCCAGCAC | 1.29
CCACAUUCACAUUCCCCUCCCCCUGUGGUCCAGUGAAGCCUCCGGACCCCAGGCUCUGCUCUGCCCUGCCCUGCACCCCCCUCGUCAGAAGUACAUGAGGGGCGCAGAGA | 0.935
CUCUUCAACAUUCAUGAAGAUUGAAUCCCAAUCGUGGAAUACACAAGCACUUUUCCAUCCCUGGCGGGAUGGGUGGAUAGAACAUUUUUUUUAUUCAGCAUACAUUUUCU | 0.5
CAGGACGCUGAGGUACUUACUACCCUGGUCUCGGGAACUGCCUGCCUAGGGCAACAGAUGUCCUGACUAAUCUGGCUUCUGGUUCCCGGUCCAUCCCUAUUUACAAAGCU | 0.198
GCGGAACCUUCUCUGUACAGCGCCCCCUUUCUGUUGUGCUAUUGGUUGCAGCUGCCAUGCUCAGAAUGCGUUUUGAGAGCUGAAGCAAGGUGCUUGCAGUCACCUGAGGC | 1.44
CCUUGAGCCUGUAGGGUUUUCAUAGUGGACAAAGGACUUAAAUGGUCUUUUAAAACUGGGAUAGUUUUUGGGGAAAGGGCAAAAGAUUAUCAUAUUGAACAUGUAGUAUC | 1.38
UCCUUGAUGUCCCGUUCUCUUCCACAGCCCUGAGGUCUUACGAAUUUUUCUACUUUCUUUUUGCUGUUGAUGAAUUGUUUCAUUAUUAAAUAUAUGCAUGUAUCAAAGCU | 17.6
UGCGGCCGGGCUGCCUAUUGCUGCCAGGAUACCUGCCCCAGCGCGGCUCGGCCGCCACCCAGGACGCUUCCAGACCACCUGCCAGCCAUCUCGUGGAGAACAUAGAUGGC | 0.181
AUCGCUAAGGCCGAUCCUGUAGAAUGCGGCUUUCAAGAGGUCCUAACUGAUCCUUUCUUCCACUUUGCUGUUGAUUUGUUCACAAAUUAUGUCUGAAUGAGAAAUCUUCU | 0.664
GCAAAAAUUAACCUUUUUUUUCCAGUCACAGUAUUUGUGAAAAGUAAUGAGCCAUAGUACCCAUUAAUGUUAAAGAAUAUUAAAGCAUGGAGAGGAACAUGAGGAACAAU | 1.31
UCAUGCCAAAGUUCUGAUGACGUAACCAGUUGACCCUUCACACAGAGUGCCCUUUCCCCCCCUCCCCCCUCCCCAUGCUUCUGUGAUUGCUCUGUAGCCAUGUGAAGCUU | 1.01

Sample 5
Target: Sal-like protein 4, full length isoform A (SALL4, Homo sapiens, UniProt Q9UJQ4, residues 1-1053)
UniProt Q9UJQ4, sequence (whole entry, looked up): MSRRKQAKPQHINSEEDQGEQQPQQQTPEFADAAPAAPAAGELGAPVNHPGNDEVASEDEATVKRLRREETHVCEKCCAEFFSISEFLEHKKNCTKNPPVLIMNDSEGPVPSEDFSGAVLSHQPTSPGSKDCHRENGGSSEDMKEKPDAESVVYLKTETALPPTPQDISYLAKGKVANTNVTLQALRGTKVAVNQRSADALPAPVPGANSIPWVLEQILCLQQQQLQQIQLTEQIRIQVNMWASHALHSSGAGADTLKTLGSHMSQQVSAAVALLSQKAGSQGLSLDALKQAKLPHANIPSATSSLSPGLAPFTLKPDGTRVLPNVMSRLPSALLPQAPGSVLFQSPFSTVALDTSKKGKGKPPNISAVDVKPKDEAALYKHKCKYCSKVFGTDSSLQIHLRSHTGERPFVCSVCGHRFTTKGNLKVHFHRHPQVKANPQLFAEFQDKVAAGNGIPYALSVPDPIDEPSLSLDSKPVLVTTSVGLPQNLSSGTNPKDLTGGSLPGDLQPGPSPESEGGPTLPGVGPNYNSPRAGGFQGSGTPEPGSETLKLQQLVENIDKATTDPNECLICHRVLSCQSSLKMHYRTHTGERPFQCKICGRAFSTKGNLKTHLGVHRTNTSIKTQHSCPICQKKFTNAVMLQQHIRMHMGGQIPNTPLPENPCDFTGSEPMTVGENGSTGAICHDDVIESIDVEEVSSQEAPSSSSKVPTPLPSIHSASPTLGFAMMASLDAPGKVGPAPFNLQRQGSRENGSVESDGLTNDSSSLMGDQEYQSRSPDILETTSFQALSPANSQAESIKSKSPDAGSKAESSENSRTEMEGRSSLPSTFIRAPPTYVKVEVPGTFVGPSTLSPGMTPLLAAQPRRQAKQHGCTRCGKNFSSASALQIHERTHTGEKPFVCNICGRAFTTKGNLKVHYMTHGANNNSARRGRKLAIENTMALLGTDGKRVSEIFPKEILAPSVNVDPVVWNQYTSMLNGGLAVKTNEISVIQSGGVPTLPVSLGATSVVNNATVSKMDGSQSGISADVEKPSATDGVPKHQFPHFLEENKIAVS
Method: universal PBM
Molecule type: double-stranded DNA, one strand shown
Sample: in vitro
Concentration: 600 nM
Setting: 8-mer, flanks averaged, mean of replicates
Direction: higher = stronger binding
Sequence | E-score
CCGCTAGC | -0.34
ATAAGGCA | 0.113
CGCTTTGA | -0.0219
CGTGCCAG | -0.28
CACTCAGG | -0.184
CTCAAGTA | 0.112
GCCCGCAC | -0.277
GGCTTCAC | -0.151
GATGTAAC | 0.148
ATGCAGGA | -0.0146
GCTTCCCA | -0.108
CATCGACG | -0.211
GGCGGGGA | 0.0202
CAGCTCGG | -0.285
CGACTCAA | -0.0192
TAGACAAA | 0.0994
TACGATAA | 0.304
CAACCACG | -0.069
AGTTCAAC | 0.0428
GAAGCATA | 0.206
GTTATGAA | 0.443
GCCGGCCA | -0.283
CACGGGGC | -0.33
TACGCGTA | -0.00123
GTTCTCCA | -0.0287

Sample 6
Target: Prothrombin, mature alpha-thrombin (F2, Homo sapiens, UniProt P00734)
Method: aptamer microarray, sandwich
Molecule type: DNA with 2'F-ANA
Sample: in vitro
Concentration: 200 nM
Setting: whole 15-mer aptamer, many near background
Added: Cy3 exosite-II aptamer, 400 nM
Direction: higher = stronger binding
Sequence: GGTTGGTGTGGTTGG
Modification | mean fluorescence intensity [a.u.]
2'F-ANA at 2 3 5 8 9 10 11 13 14 15 | 79.6
2'F-ANA at 2 6 13 14 15 | 105
2'F-ANA at 1 2 4 8 9 10 12 13 14 15 | 49.3
2'F-ANA at 2 3 5 7 8 10 14 15 | 50.7
2'F-ANA at 2 3 4 5 6 8 10 11 12 15 | 56.5
2'F-ANA at 1 3 5 7 9 10 11 14 15 | 83.6
2'F-ANA at 1 5 6 8 15 | 61.8
2'F-ANA at 2 5 8 10 15 | 56
2'F-ANA at 1 2 3 4 5 6 7 9 10 11 14 15 | 56.7
2'F-ANA at 1 3 5 10 11 13 14 15 | 48.8
2'F-ANA at 2 5 6 7 10 12 14 | 43.9
2'F-ANA at 1 3 7 9 10 11 12 13 15 | 111
2'F-ANA at 1 2 4 5 6 7 9 10 14 15 | 70.6
2'F-ANA at 1 2 6 7 8 10 11 12 13 15 | 63.1
2'F-ANA at 1 2 7 8 14 15 | 66.1
2'F-ANA at 1 5 9 11 12 13 14 | 45.8
2'F-ANA at 1 4 8 10 15 | 48.2
2'F-ANA at 1 4 6 8 10 12 15 | 56.8
2'F-ANA at 1 2 4 6 7 9 10 12 13 14 | 47
2'F-ANA at 1 2 3 4 5 6 7 9 10 12 13 | 49.8

Excerpt of the above (sample 5):
Sequence | E-score
CCGCTAGC | -0.34
ATAAGGCA | 0.113
CGCTTTGA | -0.0219
CGTGCCAG | -0.28
CACTCAGG | -0.184
CTCAAGTA | 0.112
GCCCGCAC | -0.277
